Results from different studies.
Each numbered part is a random draw from the data of one study; scales do not carry over between parts. Substitutions count along the parent as printed.
Chain of UniProt O76039 (whole entry, looked up): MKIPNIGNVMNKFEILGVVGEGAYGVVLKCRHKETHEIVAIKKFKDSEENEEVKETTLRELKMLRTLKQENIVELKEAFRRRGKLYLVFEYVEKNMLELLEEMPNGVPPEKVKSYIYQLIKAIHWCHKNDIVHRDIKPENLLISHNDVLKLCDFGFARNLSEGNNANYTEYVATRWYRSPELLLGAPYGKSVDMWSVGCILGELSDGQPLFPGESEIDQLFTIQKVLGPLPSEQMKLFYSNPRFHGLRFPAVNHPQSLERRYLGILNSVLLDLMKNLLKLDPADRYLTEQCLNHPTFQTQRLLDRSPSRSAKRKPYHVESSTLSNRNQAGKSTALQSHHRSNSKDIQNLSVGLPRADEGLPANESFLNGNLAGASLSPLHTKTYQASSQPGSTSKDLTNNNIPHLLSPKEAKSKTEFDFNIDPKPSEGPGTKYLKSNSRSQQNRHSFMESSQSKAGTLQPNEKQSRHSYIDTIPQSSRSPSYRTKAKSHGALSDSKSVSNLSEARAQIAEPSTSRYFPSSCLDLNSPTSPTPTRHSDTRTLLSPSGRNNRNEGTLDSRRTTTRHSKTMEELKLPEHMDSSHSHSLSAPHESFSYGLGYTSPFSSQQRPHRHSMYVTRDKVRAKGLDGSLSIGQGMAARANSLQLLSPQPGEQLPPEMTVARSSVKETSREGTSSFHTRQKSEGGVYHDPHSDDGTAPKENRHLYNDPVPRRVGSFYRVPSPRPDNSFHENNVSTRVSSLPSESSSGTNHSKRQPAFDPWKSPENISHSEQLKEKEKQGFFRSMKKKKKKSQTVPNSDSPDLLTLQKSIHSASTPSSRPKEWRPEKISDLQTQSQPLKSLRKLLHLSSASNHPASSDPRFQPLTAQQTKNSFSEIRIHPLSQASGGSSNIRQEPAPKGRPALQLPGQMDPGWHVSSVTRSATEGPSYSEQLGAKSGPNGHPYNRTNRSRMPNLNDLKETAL
Chain of UniProt O00329 (whole entry, looked up): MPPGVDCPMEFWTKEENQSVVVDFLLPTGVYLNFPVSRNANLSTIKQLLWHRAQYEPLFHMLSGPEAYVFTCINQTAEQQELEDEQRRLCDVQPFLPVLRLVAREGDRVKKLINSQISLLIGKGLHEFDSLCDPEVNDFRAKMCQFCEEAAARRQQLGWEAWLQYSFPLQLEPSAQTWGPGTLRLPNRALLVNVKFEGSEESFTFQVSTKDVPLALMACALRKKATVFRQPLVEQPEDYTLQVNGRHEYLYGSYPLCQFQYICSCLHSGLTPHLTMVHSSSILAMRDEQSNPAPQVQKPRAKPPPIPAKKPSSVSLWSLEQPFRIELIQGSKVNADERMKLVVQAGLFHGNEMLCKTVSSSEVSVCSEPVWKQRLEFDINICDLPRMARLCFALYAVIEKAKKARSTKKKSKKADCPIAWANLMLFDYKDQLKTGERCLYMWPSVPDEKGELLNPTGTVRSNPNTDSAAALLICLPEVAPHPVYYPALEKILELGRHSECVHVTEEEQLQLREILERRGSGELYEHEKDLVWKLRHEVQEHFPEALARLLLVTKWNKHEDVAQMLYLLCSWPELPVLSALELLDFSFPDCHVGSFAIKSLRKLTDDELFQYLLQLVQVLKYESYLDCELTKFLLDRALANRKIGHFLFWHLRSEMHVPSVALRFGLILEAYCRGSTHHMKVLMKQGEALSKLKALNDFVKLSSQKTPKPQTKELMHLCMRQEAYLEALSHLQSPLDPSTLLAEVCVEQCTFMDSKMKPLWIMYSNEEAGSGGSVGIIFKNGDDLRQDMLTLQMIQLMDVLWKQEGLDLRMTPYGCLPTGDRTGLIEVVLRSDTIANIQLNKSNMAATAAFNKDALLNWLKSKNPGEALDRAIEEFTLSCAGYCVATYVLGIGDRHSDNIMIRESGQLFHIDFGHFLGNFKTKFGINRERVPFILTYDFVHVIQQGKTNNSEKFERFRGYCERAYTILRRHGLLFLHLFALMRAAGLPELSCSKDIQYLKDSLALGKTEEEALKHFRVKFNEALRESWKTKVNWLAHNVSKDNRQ
Chain of UniProt Q6ZWH5 (whole entry, looked up): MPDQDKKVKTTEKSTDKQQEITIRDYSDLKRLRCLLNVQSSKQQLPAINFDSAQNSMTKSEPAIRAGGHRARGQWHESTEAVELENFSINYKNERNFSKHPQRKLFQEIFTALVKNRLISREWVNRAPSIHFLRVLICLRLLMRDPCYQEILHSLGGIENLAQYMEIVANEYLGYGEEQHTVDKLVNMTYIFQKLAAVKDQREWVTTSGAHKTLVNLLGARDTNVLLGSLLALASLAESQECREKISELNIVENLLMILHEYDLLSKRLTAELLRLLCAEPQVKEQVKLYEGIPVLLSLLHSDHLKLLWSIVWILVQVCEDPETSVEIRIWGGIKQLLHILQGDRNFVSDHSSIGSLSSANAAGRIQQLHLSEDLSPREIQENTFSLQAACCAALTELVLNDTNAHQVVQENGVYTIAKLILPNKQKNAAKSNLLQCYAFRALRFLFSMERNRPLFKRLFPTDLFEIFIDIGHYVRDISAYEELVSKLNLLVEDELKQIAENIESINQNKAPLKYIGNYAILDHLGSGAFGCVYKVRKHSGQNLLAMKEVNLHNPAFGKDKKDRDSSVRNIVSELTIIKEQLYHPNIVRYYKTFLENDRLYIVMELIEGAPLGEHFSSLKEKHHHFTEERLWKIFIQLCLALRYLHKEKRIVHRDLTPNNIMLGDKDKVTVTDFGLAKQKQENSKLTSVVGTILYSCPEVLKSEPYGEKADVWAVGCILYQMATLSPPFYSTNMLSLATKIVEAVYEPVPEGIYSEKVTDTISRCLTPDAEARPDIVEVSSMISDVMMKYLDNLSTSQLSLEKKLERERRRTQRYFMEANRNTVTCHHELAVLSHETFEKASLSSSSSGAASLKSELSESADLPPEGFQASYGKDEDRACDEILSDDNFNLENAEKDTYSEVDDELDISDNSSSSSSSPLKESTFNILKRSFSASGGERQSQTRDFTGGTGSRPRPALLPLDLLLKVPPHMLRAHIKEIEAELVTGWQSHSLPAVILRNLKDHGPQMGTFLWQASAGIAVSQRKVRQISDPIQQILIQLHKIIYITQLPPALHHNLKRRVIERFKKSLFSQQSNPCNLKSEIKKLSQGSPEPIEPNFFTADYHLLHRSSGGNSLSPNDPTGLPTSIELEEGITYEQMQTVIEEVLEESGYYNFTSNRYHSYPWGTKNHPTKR
Chain of UniProt Q9Y4K4 (whole entry, looked up): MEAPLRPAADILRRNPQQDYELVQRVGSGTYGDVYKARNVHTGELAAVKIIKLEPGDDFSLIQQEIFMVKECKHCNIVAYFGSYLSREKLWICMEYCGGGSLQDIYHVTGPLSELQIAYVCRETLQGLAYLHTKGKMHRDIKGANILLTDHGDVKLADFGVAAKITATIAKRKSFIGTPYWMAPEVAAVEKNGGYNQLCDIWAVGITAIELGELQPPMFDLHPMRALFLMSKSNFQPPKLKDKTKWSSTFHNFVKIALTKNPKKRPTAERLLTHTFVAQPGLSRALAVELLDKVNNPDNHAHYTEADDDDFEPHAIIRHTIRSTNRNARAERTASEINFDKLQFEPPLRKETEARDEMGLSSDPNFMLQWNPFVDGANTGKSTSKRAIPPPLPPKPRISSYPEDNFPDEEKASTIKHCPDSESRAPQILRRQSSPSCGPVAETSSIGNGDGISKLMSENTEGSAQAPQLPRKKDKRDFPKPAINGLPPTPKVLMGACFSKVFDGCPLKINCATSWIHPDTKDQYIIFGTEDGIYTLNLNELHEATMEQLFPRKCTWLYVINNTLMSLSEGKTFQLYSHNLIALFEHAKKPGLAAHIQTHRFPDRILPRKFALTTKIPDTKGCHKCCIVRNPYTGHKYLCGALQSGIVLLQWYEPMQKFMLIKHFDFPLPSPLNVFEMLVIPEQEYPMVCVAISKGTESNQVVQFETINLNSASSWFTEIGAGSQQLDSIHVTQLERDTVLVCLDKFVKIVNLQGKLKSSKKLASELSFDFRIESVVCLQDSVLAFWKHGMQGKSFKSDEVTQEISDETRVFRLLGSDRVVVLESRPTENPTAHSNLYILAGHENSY

Study 1
Cell line: HaCaT
Tested at: 100 µM
Time: 18 h
| Structure (SMILES) | viability [%] |
| --- | --- |
| C/C(=C\C(=O)OCCCCCCCCC(=O)O)C[C@@H]1OC[C@H](C[C@@H]2O[C@H]2[C@@H](C)[C@H](C)O)[C@@H](O)[C@H]1O | 116 |
| CC(=O)N[C@@H](CCC(N)=O)C(=O)O | 108 |
| CC(=O)N(CC(O)CO)c1c(I)c(C(=O)NCC(O)CO)c(I)c(C(=O)NCC(O)CO)c1I (mixture of isomers) | 110 |
| CCCSc1nc(N[C@@H]2C[C@H]2c2ccc(F)c(F)c2)c2nnn([C@@H]3C[C@H](OCCO)[C@@H](O)[C@H]3O)c2n1 | 15.4 |

Study 2
Target: CRIPT, C-terminal peptide
Method: DHFR complementation, deep sequencing
Medium: yeast
Setting: single substitutions, model-inferred values
Reference: wild type
Reading: higher = weaker binding
Parent: ERBIN, PDZ domain 1 (human); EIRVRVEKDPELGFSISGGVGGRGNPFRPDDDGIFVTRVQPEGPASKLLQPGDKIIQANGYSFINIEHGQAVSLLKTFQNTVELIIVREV; partner TKNYKQTSV
| Substitution | binding free energy change |
| --- | --- |
| R5A | 0.00165 kcal/mol |
| F63C | 0.156 kcal/mol |
| G22K | 0.714 kcal/mol |
| P51I | 0.268 kcal/mol |
| Q57S | -0.0741 kcal/mol |
| L49P | 0.891 kcal/mol |
| V72T | 1.12 kcal/mol |
| G19R | 1.3 kcal/mol |

Study 3
Target: Tyrosine-protein kinase ZAP-70 (ZAP70, Homo sapiens, UniProt P43403)
Chain of UniProt P43403 (whole entry, looked up): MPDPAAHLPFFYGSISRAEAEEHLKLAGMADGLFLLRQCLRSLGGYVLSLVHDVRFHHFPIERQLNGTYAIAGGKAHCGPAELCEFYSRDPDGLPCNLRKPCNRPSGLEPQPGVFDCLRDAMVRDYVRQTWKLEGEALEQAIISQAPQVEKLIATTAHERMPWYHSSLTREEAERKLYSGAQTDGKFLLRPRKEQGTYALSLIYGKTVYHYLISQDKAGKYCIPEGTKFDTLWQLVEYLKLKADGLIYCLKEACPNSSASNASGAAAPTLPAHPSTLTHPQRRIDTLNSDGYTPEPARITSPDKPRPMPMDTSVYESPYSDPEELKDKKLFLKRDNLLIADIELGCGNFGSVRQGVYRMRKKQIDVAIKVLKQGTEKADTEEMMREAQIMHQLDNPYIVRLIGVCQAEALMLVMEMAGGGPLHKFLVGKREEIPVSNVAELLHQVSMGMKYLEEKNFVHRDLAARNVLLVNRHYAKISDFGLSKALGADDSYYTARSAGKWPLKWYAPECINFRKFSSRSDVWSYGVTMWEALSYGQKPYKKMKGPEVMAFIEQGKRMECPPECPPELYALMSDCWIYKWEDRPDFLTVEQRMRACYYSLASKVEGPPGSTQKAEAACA
Effect on: enzyme activity
Mode: inhibitor
Tested at: 0.5 µM
Reference: control
| SMILES | remaining activity [%] |
| --- | --- |
| N#CC(c1ccnc(NCCc2cccnc2)n1)c1nc2ccccc2s1 (stereo not shown) | 94.5 |
| O=C1c2ccccc2-c2nc3nnnn3nc21 | 68.2 |
| COc1cc2c(Nc3ccc(Br)cc3F)ncnc2cc1OCC1CCN(C)CC1 | 96.8 |
| C[C@@H](N)[C@H]1CC[C@H](C(=O)Nc2ccncc2)CC1 | 89 |
| COc1cc2c(N3CCN(C(=O)Nc4ccc(OC(C)C)cc4)CC3)ncnc2cc1OCCCN1CCCCC1 | 116 |
| O=Nc1c(-c2c(O)[nH]c3ccccc23)[nH]c2ccccc12 | 95.6 |
| FC(F)(F)c1ccc(/C=C/c2nc(COc3ccc(CCCCn4ccnn4)cc3)co2)cc1 | 115 |
| c1cc(-c2cnn3cc(-c4ccc(OCCN5CCCCC5)cc4)cnc23)ccn1 | 94.5 |
| CC(C)n1cnc2c(Nc3cccc(Cl)c3)nc(NCCO)nc21 | 98.3 |
| O=C(O)/C=C/c1cc(Br)c(Br)c(Br)c1Br | 98.5 |

Study 4
Structure (SMILES): O=C(Nc1cccnn1)N1CC(C/C=C/c2cncc(Oc3ccc(C(F)(F)F)cn3)n2)C1
Effect on: cell-free assay
Method: competition with immobilised ligand
Tested at: 1 µM
| target | remaining binding |
| --- | --- |
| DDR1 (Homo sapiens, UniProt Q08345) | 99% |
| ERBB3 (Homo sapiens, UniProt P21860) | 99% |
| PLK2 (Homo sapiens, UniProt Q9NYY3) | 60% |
| NEK10 (Homo sapiens, UniProt Q6ZWH5) | 100% |
| CLK4 (Homo sapiens, UniProt Q9HAZ1) | 98% |
| SNRK (Homo sapiens, UniProt Q9NRH2) | 100% |
| MAP4K5 (Homo sapiens, UniProt Q9Y4K4) | 94% |
| KIT (Homo sapiens, UniProt P10721, T670I/V559D) | 100% |
| MAP3K14 (Homo sapiens, UniProt Q99558) | 77% |
| EGFR (Homo sapiens, UniProt P00533, L861Q) | 100% |
| PIK3CD (Homo sapiens, UniProt O00329) | 64% |
| BMX (Homo sapiens, UniProt P51813) | 100% |
| PIK3CA (Homo sapiens, UniProt P42336, H1047Y) | 100% |
| MYLK (Homo sapiens, UniProt Q15746) | 73% |
| CDKL5 (Homo sapiens, UniProt O76039) | 73% |
